Measured values of several laboratories.
Every numbered part comes from another study and shows a few of its results, in no order. Changes are numbered by the printed parent chain.

Study 1
Target: Fragile X messenger ribonucleoprotein 1, C-terminal low-complexity region (Fmr1, Mus musculus, UniProt P35922)
Technique: RNA Bind-n-Seq
Form: RNA
Medium: in vitro
Tested at: 200 nM
Setting: whole 134-nt RNA, ends assumed
Together with: 150 mM LiCl
Baseline: input library
Direction: higher = stronger binding
Each molecule: 7-deaza-guanosine replaces G
Shared flanks, not repeated: GGGAGUUCUACAGUCCGACGAUC … UGGAAUUCUCGGGUGUCAAGG
Sequence	log2 enrichment
GUCCUGUGCUACACAUCGUAUGUACCGAAUCAAAUUUUUAAACCCAAAUUUUUUUAAAAAAGUAUUAUGUUACGCCGUUCGGAUCUGCAC	-2.1
UGCUGUGCAGCGGCAUCGGCCCACUGUGGUGGAAUGUCUACGGGAAACUGAUGCCUCCCUCAGCCGGUGAGCAGUGAUAGAGGGGACAGG	-1.38
CCUGUGCUACACAUCGUAUGUACCGAAUCGGGGAGGGGUUUUUUUGGGGUUUUUUUGGGGAAAGUAUUAUGUUACGCCGUUCGGAUCUGC	1.23
GCAGGAAGUAAAAACAAAAGGAAAUGCUUCGGAUAGUGGCAGGGGUGGGGGUUGCUAAGGAAAGGGUGGGAUGGGAGUGGGUAAAGAGUU	1.57
GUCCUGUGCUACACAUCGUAUGUACCGAAUCGGAAAAAGGGGAAAAAGGGGAAAAAGGAAAGUAUUAUGUUACGCCGUUCGGAUCUGCAC	0.201
CAAGUCCUGUGCUACACAUCGUAUGUACCGAAUCGGUUUUGGGUUUUGGUUUUGGGAAAGUAUUAUGUUACGCCGUUCGGAUCUGCACUU	-1.69
CAAGUCCUGUGCUACACAUCGUAUGUACCGAAUCGGGCCCGGGGCCCGGGCCCGGGAAAGUAUUAUGUUACGCCGUUCGGAUCUGCACUU	-2.68
CACAGACAACACGCACCCACACAGACACAGAGGGAAGCGGUUGGGAUGGGGACAGGGUGCACAGCAGGGCGGGGUAGGACCCCAGCCCCU	-1.53
GUCCUGUGCUACACAUCGUAUGUACCGAAUCGGGCCCCCGGGCCCCCGGGCCCCCGGGGAAAGUAUUAUGUUACGCCGUUCGGAUCUGCA	-2.39
CUCAAGUCCUGUGCUACACAUCGUAUGUACCGAAUCGGGAAGGAAGGGAAGGGGAAAGUAUUAUGUUACGCCGUUCGGAUCUGCACUUCC	0.236
CCUGUGCUACACAUCGUAUGUACCGAAUCGGGUUUUUUGGUUUUUUGGGGUUUUUUGGGGAAAGUAUUAUGUUACGCCGUUCGGAUCUGC	-1.51

Study 2
Target: Histone acetyltransferase KAT6A, winged helix 1, GST fusion (KAT6A, Homo sapiens, UniProt Q92794, residues 1-85)
Technique: protein binding microarray
Form: double-stranded DNA, one strand shown
Medium: in vitro
Tested at: not given
Setting: 8-mer, flanks averaged, mean of 2 arrays, mostly near background
Baseline: not given
Direction: higher = stronger binding
Construct (chain): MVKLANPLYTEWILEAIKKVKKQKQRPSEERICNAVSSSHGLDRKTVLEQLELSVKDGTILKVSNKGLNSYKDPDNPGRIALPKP
Sequence	E-score
GGTACGAA	-0.0226
TGATCGAA	-0.116
GCGAGCCA	-0.00666
AAATGGCG	0.191
AGCGCTGC	0.239
CTCAACGA	-0.125
AATCCTAA	-0.00323
ACAATTGA	-0.065
ATTCGGCA	0.145
ACGTAACT	-0.00342

Study 3
Target: CCNA1, cyclin fold, Cln2 fusion (human)
Technique: yeast growth competition, sequencing
Medium: yeast
Setting: weak parent motif
Baseline: not given
Direction: higher = stronger binding
Parent: INSM1 docking peptide (human); PKAIRKLHFEDEV
Substitution	normalised enrichment score
K2Q	0.258
L7K	0.369
K2V	0.23
E10S	0.699
I4N	0.692
K6N	0.606
R5F	-0.255
I4R	1.58
R5L	0.0264

Mixed results
Molecule	target	test	system	setting	scale	measurement	result
PhoQ, residues 284 288 289 292 302 303 SNSSNI	PhoP, residues 12 14 15 18 19 VQALL (Escherichia coli, UniProt P23836)	Sort-seq, item: YFP reporter	E. coli	PhoQ-PhoP variant library, together with: 10 µM Mg2+	baseline: high Mg2+ state, higher = stronger signaling	fold induction	2.3

Excerpt of the above (study 1):
Sequence	log2 enrichment
CCUGUGCUACACAUCGUAUGUACCGAAUCGGGUUUUUUGGUUUUUUGGGGUUUUUUGGGGAAAGUAUUAUGUUACGCCGUUCGGAUCUGC	-1.51
CACAGACAACACGCACCCACACAGACACAGAGGGAAGCGGUUGGGAUGGGGACAGGGUGCACAGCAGGGCGGGGUAGGACCCCAGCCCCU	-1.53
GCAGGAAGUAAAAACAAAAGGAAAUGCUUCGGAUAGUGGCAGGGGUGGGGGUUGCUAAGGAAAGGGUGGGAUGGGAGUGGGUAAAGAGUU	1.57
